Published values gathered from unrelated publications.
Each line is one published result; not all experiments were run side by side. Values joined by “and” are separate records of one study, mostly repeats; a detail may differ.
CYP2D6: Cytochrome P450 2D6 (CYP2D6, Homo sapiens, UniProt P10635)
Chain of UniProt P10635 (whole entry, unmodified, looked up): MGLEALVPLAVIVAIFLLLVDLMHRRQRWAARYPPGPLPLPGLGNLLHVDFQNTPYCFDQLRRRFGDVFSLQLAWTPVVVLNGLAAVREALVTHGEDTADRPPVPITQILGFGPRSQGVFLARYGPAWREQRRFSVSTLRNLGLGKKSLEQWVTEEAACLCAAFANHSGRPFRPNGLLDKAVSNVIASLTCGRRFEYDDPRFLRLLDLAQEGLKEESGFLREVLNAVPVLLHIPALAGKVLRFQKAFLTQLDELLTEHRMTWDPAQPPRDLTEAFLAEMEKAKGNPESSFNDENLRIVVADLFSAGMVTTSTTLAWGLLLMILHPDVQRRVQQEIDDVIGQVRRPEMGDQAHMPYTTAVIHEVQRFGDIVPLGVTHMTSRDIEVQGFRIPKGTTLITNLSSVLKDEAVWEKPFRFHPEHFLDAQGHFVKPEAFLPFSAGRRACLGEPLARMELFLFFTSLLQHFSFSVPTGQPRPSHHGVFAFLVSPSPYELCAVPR

SMILES	target	assay	system	conditions	IC50
Cc1nc(-c2cnc(NC(C)C)n(C)c2=O)ccc1Oc1ccnc(-c2cnn(C)c2)c1	CYP2D6	inhibitor	–	30 min, metabolism-dependent, NADPH preincubation	> 100000 nM
CC(CN1c2ccccc2Sc2ccccc21)N(C)C (stereo not shown)	CYP2D6	inhibitor	–	–	390 nM
N#Cc1ccc(Nc2nc(N)cc(Oc3c(F)cc(-c4ccc(C#N)cc4)cc3F)n2)cc1	CYP2D6	–	human liver microsomes	with: dextromethorphan 50 µM	> 50000 nM
CCCCCNC(=N)N/N=C/c1c[nH]c2ccc(OC)cc12	CYP2D6	inhibitor	–	with: substrate AMMC	340 nM
CN(C/C=C/C#CC(C)(C)C)Cc1cccc2ccccc12	Cytochrome P450 2D6 (CYP2D6, Homo sapiens, UniProt P10635, R296C/S486T/T107I)	–	–	pH 7.4	1690 nM
NC/C(=C\F)COc1cccc(Cn2c(=S)[nH]c(=O)c3[nH]cnc32)c1	CYP2D6	enzyme activity, inhibitor	–	CYP2D6 screen	> 10000 nM
N#Cc1ccc([C@H]2CCc3cncn32)c(F)c1	CYP2D6	inhibitor, item: 1'-hydroxylation	pooled human liver microsomes	with: bufuralol 5 µM	< 10000 nM and 4000 nM
Cc1cc(OC2COC2)cc(C(=O)Nc2ccc(F)cn2)n1	CYP2D6	inhibitor	–	–	> 30000 nM
Cc1cccnc1C(=O)Nc1ccc(N2C(=O)c3cccc(Cl)c3C2=O)c(Cl)c1	CYP2D6	enzyme activity, inhibitor	–	2D6	> 30000 nM
CCCN(CCC)CCc1cccc2c1CC(=O)N2	CYP2D6	inhibitor	–	with: substrate AMMC	850 nM
